Measured values gathered from unrelated publications.
Numbered parts are unrelated; each lists some results of a single study. Changes are numbered by the printed parent chain.
UniProt Q08881, sequence (whole entry, looked up): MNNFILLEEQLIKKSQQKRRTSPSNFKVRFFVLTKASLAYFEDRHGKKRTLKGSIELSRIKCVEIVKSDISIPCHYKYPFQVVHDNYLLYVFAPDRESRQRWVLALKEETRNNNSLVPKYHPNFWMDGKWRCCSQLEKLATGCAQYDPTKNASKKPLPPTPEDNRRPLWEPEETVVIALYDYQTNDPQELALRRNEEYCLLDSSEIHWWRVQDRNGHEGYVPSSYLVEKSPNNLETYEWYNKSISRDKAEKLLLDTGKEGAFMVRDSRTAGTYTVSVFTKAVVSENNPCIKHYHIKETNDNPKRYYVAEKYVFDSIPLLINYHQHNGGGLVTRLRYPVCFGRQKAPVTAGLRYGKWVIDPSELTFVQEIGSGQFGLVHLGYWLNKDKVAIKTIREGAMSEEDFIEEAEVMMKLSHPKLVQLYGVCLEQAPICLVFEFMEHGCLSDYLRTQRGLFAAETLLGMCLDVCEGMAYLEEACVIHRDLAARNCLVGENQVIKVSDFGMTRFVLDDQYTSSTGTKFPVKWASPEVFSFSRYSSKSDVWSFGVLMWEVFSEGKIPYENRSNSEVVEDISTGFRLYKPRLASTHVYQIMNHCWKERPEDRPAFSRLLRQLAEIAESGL
UniProt Q99759, sequence (whole entry, looked up): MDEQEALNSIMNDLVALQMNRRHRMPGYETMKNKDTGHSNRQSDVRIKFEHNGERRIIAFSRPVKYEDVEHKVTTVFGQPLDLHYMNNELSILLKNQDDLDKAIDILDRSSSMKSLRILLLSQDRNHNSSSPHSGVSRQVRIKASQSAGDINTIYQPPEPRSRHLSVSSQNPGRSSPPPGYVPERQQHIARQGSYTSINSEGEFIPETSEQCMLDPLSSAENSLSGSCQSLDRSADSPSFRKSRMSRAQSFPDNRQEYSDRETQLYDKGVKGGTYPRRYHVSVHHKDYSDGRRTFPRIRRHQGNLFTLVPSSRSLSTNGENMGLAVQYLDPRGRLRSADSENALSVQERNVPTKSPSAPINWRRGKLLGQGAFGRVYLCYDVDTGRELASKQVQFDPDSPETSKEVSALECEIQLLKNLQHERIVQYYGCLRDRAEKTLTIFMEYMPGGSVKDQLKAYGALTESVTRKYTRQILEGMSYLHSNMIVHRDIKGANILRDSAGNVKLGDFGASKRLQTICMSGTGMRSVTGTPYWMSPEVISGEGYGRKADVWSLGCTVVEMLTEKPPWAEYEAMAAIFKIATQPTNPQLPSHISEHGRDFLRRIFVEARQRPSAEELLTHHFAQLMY
UniProt P42681, sequence (whole entry, looked up): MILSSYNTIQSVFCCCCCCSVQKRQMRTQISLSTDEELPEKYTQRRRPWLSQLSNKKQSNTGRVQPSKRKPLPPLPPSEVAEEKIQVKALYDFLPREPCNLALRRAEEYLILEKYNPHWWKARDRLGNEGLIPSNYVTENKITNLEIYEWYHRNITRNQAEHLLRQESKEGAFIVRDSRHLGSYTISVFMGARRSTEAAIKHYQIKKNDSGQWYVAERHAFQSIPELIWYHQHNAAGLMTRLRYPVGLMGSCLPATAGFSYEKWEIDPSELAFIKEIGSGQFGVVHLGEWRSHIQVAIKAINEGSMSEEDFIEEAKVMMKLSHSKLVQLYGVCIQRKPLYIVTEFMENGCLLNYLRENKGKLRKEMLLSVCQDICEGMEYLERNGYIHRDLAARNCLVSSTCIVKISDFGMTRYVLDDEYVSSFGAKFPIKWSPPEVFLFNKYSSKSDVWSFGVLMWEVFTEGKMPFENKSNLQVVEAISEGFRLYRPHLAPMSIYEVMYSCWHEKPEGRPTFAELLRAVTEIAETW
UniProt P19525, sequence (whole entry, looked up): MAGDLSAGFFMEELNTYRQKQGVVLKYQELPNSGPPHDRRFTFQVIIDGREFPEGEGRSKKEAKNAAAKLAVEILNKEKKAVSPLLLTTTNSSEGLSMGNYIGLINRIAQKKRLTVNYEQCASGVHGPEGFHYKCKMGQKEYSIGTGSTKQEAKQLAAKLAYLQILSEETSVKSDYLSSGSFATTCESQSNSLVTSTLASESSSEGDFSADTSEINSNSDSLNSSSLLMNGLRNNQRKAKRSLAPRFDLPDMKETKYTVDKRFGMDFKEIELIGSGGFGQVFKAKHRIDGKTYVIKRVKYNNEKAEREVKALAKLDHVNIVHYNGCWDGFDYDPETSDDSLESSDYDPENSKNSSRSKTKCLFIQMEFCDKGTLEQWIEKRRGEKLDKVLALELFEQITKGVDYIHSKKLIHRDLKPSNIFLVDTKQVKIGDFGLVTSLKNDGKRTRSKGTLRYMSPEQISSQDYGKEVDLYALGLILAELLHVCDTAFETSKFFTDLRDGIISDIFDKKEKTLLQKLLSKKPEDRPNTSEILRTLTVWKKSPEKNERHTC
UniProt Q8TDR2, sequence (whole entry, looked up): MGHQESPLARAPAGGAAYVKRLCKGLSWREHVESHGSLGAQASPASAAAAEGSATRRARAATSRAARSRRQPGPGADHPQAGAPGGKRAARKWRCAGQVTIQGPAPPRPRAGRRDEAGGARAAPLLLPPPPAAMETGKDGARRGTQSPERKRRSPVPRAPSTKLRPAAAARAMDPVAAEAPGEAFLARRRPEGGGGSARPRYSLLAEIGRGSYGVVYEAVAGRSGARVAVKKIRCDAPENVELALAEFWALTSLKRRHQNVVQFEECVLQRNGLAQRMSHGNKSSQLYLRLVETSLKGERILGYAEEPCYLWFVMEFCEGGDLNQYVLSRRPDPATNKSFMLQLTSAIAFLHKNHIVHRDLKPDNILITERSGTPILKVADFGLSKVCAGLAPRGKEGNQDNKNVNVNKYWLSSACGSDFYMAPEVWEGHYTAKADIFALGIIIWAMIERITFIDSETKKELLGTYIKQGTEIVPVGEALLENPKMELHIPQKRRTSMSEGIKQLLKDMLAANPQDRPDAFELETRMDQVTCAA
UniProt P53778, sequence (whole entry, looked up): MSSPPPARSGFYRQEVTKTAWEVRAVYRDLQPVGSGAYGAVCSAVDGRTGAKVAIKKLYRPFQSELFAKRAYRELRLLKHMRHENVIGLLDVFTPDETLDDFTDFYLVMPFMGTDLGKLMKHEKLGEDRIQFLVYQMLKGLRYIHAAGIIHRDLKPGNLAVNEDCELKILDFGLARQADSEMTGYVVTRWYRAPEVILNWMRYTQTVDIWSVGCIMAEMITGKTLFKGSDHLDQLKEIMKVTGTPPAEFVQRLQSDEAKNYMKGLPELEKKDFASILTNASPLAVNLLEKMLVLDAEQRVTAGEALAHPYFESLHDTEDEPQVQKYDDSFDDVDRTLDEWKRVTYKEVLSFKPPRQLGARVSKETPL
UniProt P49336, sequence (whole entry, looked up): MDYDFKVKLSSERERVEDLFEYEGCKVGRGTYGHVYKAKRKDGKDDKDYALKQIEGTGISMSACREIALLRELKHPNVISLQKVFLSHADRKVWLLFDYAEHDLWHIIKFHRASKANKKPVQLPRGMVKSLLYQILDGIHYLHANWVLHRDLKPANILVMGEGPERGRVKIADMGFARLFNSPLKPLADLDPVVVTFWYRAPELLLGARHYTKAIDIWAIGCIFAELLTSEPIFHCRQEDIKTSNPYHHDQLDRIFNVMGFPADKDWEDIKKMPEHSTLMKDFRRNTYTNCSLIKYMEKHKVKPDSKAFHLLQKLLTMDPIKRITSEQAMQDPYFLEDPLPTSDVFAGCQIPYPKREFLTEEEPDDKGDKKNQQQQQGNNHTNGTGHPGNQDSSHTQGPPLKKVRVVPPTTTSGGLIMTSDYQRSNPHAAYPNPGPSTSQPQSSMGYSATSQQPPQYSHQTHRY
UniProt Q15349, sequence (whole entry, looked up): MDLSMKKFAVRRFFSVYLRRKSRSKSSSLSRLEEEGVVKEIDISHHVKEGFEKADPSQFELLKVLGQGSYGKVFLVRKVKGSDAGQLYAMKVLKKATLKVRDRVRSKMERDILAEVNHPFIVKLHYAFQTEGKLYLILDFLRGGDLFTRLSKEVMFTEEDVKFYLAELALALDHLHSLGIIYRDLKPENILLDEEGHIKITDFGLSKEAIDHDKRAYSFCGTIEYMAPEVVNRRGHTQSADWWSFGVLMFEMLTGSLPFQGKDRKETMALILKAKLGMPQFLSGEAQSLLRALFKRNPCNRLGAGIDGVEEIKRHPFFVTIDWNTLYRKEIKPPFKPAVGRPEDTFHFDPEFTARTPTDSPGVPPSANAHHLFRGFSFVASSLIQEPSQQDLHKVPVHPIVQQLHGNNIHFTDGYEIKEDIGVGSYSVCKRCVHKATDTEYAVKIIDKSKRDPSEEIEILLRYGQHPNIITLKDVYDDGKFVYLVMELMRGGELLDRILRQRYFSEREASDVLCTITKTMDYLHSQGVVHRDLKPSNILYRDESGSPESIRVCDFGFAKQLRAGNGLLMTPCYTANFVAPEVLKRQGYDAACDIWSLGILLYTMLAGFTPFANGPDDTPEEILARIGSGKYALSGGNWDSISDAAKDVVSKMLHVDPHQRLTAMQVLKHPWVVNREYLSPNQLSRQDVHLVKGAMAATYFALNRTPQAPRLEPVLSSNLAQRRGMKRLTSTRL

Sample 1
Target: CCNF, cyclin fold, Cln2 fusion (human)
Method: yeast growth competition, sequencing
Sample: yeast
Setting: strong parent motif
Relative to: not given
Direction: higher = stronger binding
Endpoint: normalised enrichment score
Starting sequence: MICAL3 docking peptide (human); LQLRRQLSFSEDS
F9D: -0.166
Q6I: 2.43
R4T: 0.593
R5S: -0.0128
D12N: 5.66
Q6L: 1.35
R5T: 0.357
F9G: -0.185

Sample 2
Cell line: Huh-7
Tested at: 10 µM
Time: 24 h
Endpoint: viability
C#C[C@]1(O)CC[C@H]2[C@@H]3CCc4cc(OC)ccc4[C@H]3CC[C@@]21C: 95.1%
Nc1ncnc2c1ncn2[C@@H]1O[C@H](CO)[C@@H](O)[C@@H]1O: 84.1%
CCN[C@@H]1C[C@H](N)[C@@H](O[C@H]2OC(CN)=CC[C@H]2N)[C@H](O)[C@H]1O[C@H]1OC[C@](C)(O)[C@H](NC)[C@H]1O: 100%

Sample 3
Compound: Cc1cc(C)c(-n2ccn3nc(-c4cccnc4)cc23)cc1NC(=O)c1cc(C#N)cc(S(F)(F)(F)(F)F)c1
Method: competition with immobilised ligand
Tested at: 0.1 µM
Endpoint: remaining binding
CDK8 (Homo sapiens, UniProt P49336); cell-free assay: 76.7%
STK35 (Homo sapiens, UniProt Q8TDR2); cell-free assay: 92%
EGFR (Homo sapiens, UniProt P00533, L858R); cell-free assay: 83.9%
EIF2AK2 (Homo sapiens, UniProt P19525); cell-free assay: 96.4%
MET (Homo sapiens, UniProt P08581, Y1235D); cell-free assay: 93.4%
FLT3 (Homo sapiens, UniProt P36888, K663Q); cell-free assay: 100%
MAP3K3 (Homo sapiens, UniProt Q99759); cell-free assay: 67.3%
ITK (Homo sapiens, UniProt Q08881); cell-free assay: 84.9%
MAPK12 (Homo sapiens, UniProt P53778); cell-free assay: 61.2%
TXK (Homo sapiens, UniProt P42681); binding: 98.3%
Ribosomal protein S6 kinase alpha-2, C-terminal kinase domain (RPS6KA2, Homo sapiens, UniProt Q15349); cell-free assay: 65.1%

Sample 4
Observed: AlphaScreen signal
Method: AlphaScreen counter screen
Sample: His6 peptide without bromodomain
Tested at: 50 µM
Setting: assay interference check
Endpoint: inhibition
O=C1NC(=O)/C(=C/c2ccc(-c3nc4ccccc4s3)o2)S1: 3.5%
NC(=O)Nc1sc(-c2ccccc2)cc1C(N)=O: 12.9%
Cn1c(=O)c(F)c(Nc2ccc(I)cc2F)c2c(=O)n(C[C@@H](O)CO)cnc21: 18.8%

Mixed results
NC(=O)c1ncn([C@@H]2O[C@H](CO)[C@@H](O)[C@H]2O)c1N  nuclei count (mouse MPNST tumor cells; high-content nuclear imaging, refers to: cell number; 10 µM, 12 h, mean of 2 replicates; relative to: plate mean, higher = more cells): 0.865 z-score
CCc1nc(C)sc1CNC(=O)Nc1ccc2c(cnn2C)c1  remaining compound (mouse, microsomes or S9; 2 µM, 0.5 h): 64.7%
O=C(Nc1ccc(Cl)c(Cl)c1)Nc1ccc(Cl)c(Cl)c1  nuclei count (mouse MPNST tumor cells; high-content nuclear imaging, refers to: cell number; 10 µM, 12 h, mean of 2 replicates; relative to: plate mean, higher = more cells): 0.714 z-score

For quick reference, copied from above (sample 2):
C#C[C@]1(O)CC[C@H]2[C@@H]3CCc4cc(OC)ccc4[C@H]3CC[C@@]21C: 95.1%
CCN[C@@H]1C[C@H](N)[C@@H](O[C@H]2OC(CN)=CC[C@H]2N)[C@H](O)[C@H]1O[C@H]1OC[C@](C)(O)[C@H](NC)[C@H]1O: 100%
Nc1ncnc2c1ncn2[C@@H]1O[C@H](CO)[C@@H](O)[C@@H]1O: 84.1%
